Measurements from different studies.
Protocols differ between the studies behind these lines. Several values in a cell are separate wells, animals, samples, runs or records. In brackets after ≈: the same amount, converted by molar mass.

COc1c(CCC[P+](c2ccccc2)(c2ccccc2)c2ccccc2)cc2c(c1OC)OCO2.[I-]  GI50 (ACHN; SRB): -5.27 log M
CS(=O)(=O)Nc1ncn(-c2cc(F)c(COc3ccc(OS(=O)(=O)F)cc3)c(F)c2)n1  CFU reduction (Mycobacterium tuberculosis; non-replicating persistent culture; 20 µM, 100-day-old culture): 1.1 log10 CFU
CS(=O)(=O)c1ccc([C@@H](O)[C@@H](CF)NC(=O)C(Cl)Cl)cc1  MIC (Salmonella enterica; 20 h, pH 7.2): 4 µg/mL (≈ 11.2 µM)
CN(C)c1cccc(C(=O)NCC2CCN(c3cc(-c4ccc(Cl)cc4)n[nH]3)CC2)c1  maximum response (Vero-E6; CellTiter-Glo ATP; 72 h, second round 5-point; reference: DMSO 0%, hyamine -100%, more negative, more toxic): -25.4%
C=C1C[C@@H]2[C@H](CC[C@]3(C)C(=O)CC[C@@H]23)[C@@]2(C)C=CC(=O)C=C12  maximum inhibition (human coronavirus OC43; virus-induced cell killing; MRC-5; maximum over 10 doses): 0%
Cc1ccc(C(C)Nc2nc(N3CCNCC3)nc3ccccc23)cc1 (stereo not drawn)  cytotoxicity efficacy (Vero-E6; CellTiter-Glo ATP; concentration not given, 72 h, retest 8-point duplicates; reference: DMSO 0%, hyamine -100%, more negative, more toxic): 0%
COc1cc(CCC[P+](c2ccccc2)(c2ccccc2)c2ccccc2)c(OC)c2c1OCO2.[I-]  GI50 (A549; NCI60 SRB): -5.4 log M
C[C@]12CCC(=O)C(O)=C1CC[C@@H]1[C@@H]2CC[C@]2(C)C(=O)CC[C@@H]12  maximum inhibition (human coronavirus OC43; virus-induced cell killing; MRC-5; screen): 7.46%
COc1cc(NC(=O)Cn2ccc3cc(F)c(-c4cnn(C)c4)cc32)cc(OC)c1OC  EC50 shift (Plasmodium falciparum; parasite growth; Dd2 PfATP4 F156L; reference: parental Dd2): 10 fold
CC[C@H](C)[C@@H]1NC(=O)[C@@H]2CCCN2C(=O)[C@H](CC(C)C)NC(=O)[C@H](CC(C)C)NC(=O)CNC(=O)[C@@H](NC(=O)[C@@H](NC(=O)[C@H](CC(=O)O)NC(=O)CNC(=O)[C@@H](NC(=O)[C@H](C)NC(=O)CNC(=O)[C@H](CCCCN)NC(=O)[C@H](CC(C)C)NC(=O)[C@H](CC(C)C)NC(=O)[C@H](CCCCN)NC(=O)CNC(=O)[C@@H](NC(=O)[C@@H](N)CC(C)C)C(C)C)C(C)C)C(C)C)CSSC[C@@H](C(=O)O)NC1=O  log2 fold change (RNA-seq, measured: Ly6i mRNA; mouse traumatic brain injury, frontal cortex and hippocampus; dose not given; reference: TBI plus compound vs TBI): -5.47
[H]/N=C(/N)N[C@H]1[C@H](O)[C@@H](O)[C@H](O[C@@H]2O[C@@H](C)[C@](O)(C=O)[C@H]2O[C@@H]2O[C@@H](CO)[C@H](O)[C@@H](O)[C@@H]2NC)[C@@H](N/C(N)=N\[H])[C@@H]1O  MIC (Salmonella enterica; 20 h, pH 7.2): 1020 µg/mL (≈ 1760 µM)
CC[C@H](C)[C@H](NC(=O)[C@H](CC(C)C)NC(=O)[C@H](CC(C)C)NC(=O)[C@H](CC(C)C)NC(=O)[C@@H](NC(=O)[C@@H](NC(=O)[C@H](CCCCN)NC(=O)[C@H](CCCCN)NC(=O)[C@H](CCCCN)NC(=O)[C@H](CCCCN)NC(=O)[C@H](CC(C)C)NC(=O)[C@H](CCCNC(=N)N)NC(=O)[C@H](CO)NC(=O)[C@@H](N)CO)[C@@H](C)CC)C(C)C)C(=O)N[C@@H](CO)C(=O)N[C@@H](CCCCN)C(=O)N[C@@H](CCCCN)C(=O)N[C@@H](CCCCN)C(=O)N[C@@H](CCCCN)C(N)=O  MIC range (Acinetobacter baumannii, Enterococcus faecalis): 4 to 8 µM (≈ 8.95 to 17.9 µg/mL)
OC(Cn1cncn1)(Cn1cncn1)c1ccc(F)cc1F  relative growth (Saccharomyces cerevisiae; OD600; Pdr5-deficient, empty vector; 10 µg/mL; reference: no-drug control): 1.28% and 2% and 0.714%
CCn1cc(C(=O)O)c(=O)c2ccc(C)nc21  MIC (Salmonella enterica; 20 h, pH 7): 4 µg/mL (≈ 17.2 µM)
CCC1(c2ccc(N)cc2)CCC(=O)NC1=O (stereo not drawn)  maximum inhibition (human coronavirus OC43; virus-induced cell killing; MRC-5; maximum over 10 doses): 0.126%

A few entries again:
CC[C@H](C)[C@@H]1NC(=O)[C@@H]2CCCN2C(=O)[C@H](CC(C)C)NC(=O)[C@H](CC(C)C)NC(=O)CNC(=O)[C@@H](NC(=O)[C@@H](NC(=O)[C@H](CC(=O)O)NC(=O)CNC(=O)[C@@H](NC(=O)[C@H](C)NC(=O)CNC(=O)[C@H](CCCCN)NC(=O)[C@H](CC(C)C)NC(=O)[C@H](CC(C)C)NC(=O)[C@H](CCCCN)NC(=O)CNC(=O)[C@@H](NC(=O)[C@@H](N)CC(C)C)C(C)C)C(C)C)C(C)C)CSSC[C@@H](C(=O)O)NC1=O  log2 fold change (RNA-seq, measured: Ly6i mRNA; mouse traumatic brain injury, frontal cortex and hippocampus; dose not given; reference: TBI plus compound vs TBI): -5.47
